Assay results pooled from the literature.
Numbered parts are unrelated; each lists some results of a single study. Substitutions count along the parent as printed.

Series 1
Target: Sal-like protein 4, full length isoform A (SALL4, Homo sapiens, UniProt Q9UJQ4, residues 1-1053)
Chain of UniProt Q9UJQ4 (whole entry, looked up): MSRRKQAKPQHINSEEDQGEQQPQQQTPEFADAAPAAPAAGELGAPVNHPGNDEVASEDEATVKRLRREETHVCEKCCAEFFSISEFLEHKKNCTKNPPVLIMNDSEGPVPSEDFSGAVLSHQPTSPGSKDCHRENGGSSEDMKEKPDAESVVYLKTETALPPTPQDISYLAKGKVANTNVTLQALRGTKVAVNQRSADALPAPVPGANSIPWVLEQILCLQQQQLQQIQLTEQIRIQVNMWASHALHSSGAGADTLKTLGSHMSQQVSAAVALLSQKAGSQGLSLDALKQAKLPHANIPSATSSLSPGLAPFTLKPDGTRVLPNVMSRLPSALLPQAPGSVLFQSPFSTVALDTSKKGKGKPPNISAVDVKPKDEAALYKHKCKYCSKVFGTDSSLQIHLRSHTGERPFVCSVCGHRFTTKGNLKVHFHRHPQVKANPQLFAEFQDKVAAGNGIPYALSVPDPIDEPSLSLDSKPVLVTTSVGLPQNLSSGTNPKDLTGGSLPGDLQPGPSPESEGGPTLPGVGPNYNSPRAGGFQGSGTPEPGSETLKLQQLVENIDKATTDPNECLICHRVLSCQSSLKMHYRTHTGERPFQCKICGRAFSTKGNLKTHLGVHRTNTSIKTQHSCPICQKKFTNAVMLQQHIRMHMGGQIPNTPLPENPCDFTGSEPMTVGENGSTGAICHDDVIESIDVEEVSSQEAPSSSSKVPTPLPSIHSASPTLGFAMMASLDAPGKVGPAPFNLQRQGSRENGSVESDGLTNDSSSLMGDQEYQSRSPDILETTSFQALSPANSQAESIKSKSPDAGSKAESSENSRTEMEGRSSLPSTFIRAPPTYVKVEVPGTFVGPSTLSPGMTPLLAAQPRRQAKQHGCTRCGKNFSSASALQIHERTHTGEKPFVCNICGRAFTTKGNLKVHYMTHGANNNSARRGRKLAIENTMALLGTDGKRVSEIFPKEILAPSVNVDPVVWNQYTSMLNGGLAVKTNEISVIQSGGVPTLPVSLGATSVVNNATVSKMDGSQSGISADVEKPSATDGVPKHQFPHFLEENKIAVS
Technique: universal PBM
Molecule type: double-stranded DNA, one strand shown
Matrix: in vitro
Tested at: 600 nM
Setting: 8-mer, flanks averaged, mean of replicates
Reading: higher = stronger binding
Endpoint: E-score
ATGCCGTG: -0.14
CGTCTACC: -0.0998
ACTATCCC: -0.109
CGAGGCCG: -0.341
ACTCTGGA: 0.0866
ATCCACTC: -0.115
ACAGAAGC: 0.0404
CCTCAATA: 0.139

Series 2
Target: Prothrombin, mature alpha-thrombin (F2, Homo sapiens, UniProt P00734)
Technique: aptamer microarray, sandwich
Molecule type: DNA with 2'F-ANA
Matrix: in vitro
Tested at: 200 nM
Setting: whole 15-mer aptamer, many near background
With: Cy3 exosite-II aptamer, 400 nM
Reading: higher = stronger binding
Endpoint: mean fluorescence intensity
Sequence: GGTTGGTGTGGTTGG
2'F-ANA at 1 2 4 10 13 14 15: 52.2 a.u.
2'F-ANA at 4 5 9 12 14 15: 47.9 a.u.
2'F-ANA at 2 3 5 6 9 11 13 14 15: 51.7 a.u.
2'F-ANA at 1 3 4 12 14 15: 93.1 a.u.
2'F-ANA at 4 5 6 7 8 10 12 13: 45.5 a.u.
2'F-ANA at 4 5 6 11 15: 164 a.u.
2'F-ANA at 3 7 10 11: 629 a.u.
2'F-ANA at 1 6 8 9 11 12: 322 a.u.

Series 3
Target: Hepatocyte nuclear factor 3-alpha (Foxa1, Mus musculus, UniProt P35582, residues 1-468, full length assumed)
Technique: EMSA with sequencing
Molecule type: double-stranded DNA, one strand shown
Matrix: in vitro
Tested at: 10 and 20 nM
Setting: whole designed probe, mean of two concentrations, ends assumed
Reference: negative control set to 0
Reading: higher = stronger binding
Endpoint: normalised bound fraction
Constant ends, left off below: GTGAGCGGTGCCCATTGATGGGGAAC … TTTCACTGGGATCGTGGGGAC
Construct (chain): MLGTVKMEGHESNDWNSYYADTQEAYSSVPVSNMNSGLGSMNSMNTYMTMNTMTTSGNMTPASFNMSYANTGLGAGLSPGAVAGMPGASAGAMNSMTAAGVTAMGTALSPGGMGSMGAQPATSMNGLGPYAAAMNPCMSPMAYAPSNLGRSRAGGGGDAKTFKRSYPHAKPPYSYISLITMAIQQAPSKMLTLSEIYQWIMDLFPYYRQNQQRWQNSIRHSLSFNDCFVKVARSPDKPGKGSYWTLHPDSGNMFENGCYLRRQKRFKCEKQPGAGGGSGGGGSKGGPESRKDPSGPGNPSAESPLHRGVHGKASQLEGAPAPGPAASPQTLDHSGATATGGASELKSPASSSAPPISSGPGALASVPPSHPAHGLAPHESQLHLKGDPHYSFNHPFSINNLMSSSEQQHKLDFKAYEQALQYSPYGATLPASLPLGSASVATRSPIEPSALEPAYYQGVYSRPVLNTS
AGAACATATAAATCAGCACAAACAATGTAATATCAGATGGCTTTCAAATAAGAGATTAGAAAATGTTGTCCAAAGATATAAATAATGTGAAAAGTAAATAAAAATGCATTTATTTCATTAAGATAGATGACATAACTTTTTTAATGTCAAGGAATTTAATAATCACCTCCCTAAAACTTAATGGGTCCTCCCC: 0.461 ratio
TTTAGACAACCATTTTGCTTATGTTGTACTCTTTTTATAGAATATGAAAAAGAAAGTGTAAAAAGCAGATCTTATAAAATTCTCTTACCTTCCATGTTTACATTTTGATGTTGGTATCAATTTACTCTCCTATAGATGCTTGGTATTATTATTTTTGAAACAGAGAAATTTCACGTGTGTAAAATTACAGAGT: 0.255 ratio
ATCTTCCCCCTCTTCCTTGCCCCACCAGCTCACCTACGGGGGTTATTTGCAGATAGGAAAATAAATAAAGCCGGCATTCGTTAACCCTCTTCTGGCGCAAACTGCTGTTTGCTCTGGATGAATCATGGTCCTTTGGCGAGGCGTGGCTCCGGGAGAGCAAAGCACCGTGTCAGGGCCATGATCCGGGGTGGCC: 0.338 ratio
CCCTCATCCTGGGTGTCGGGGTGGGAGGTGTTCTCATCATGAATGGGAGGCGTACCCAGATCCAGCTCTGCCTTTTTTTAACCAAACCAGAGTGTAAACAAATGGCTGTGTGACTCACCATAATCGACATAGCAAGATATGATACATGCCAGGAGAGAAAAAGAAAGTGCTGATGGAAAAATAATCTCATTAG: 0.354 ratio
CTTACAGTACTGCAAGTTGCTCTAGGTGAGTCAGTGAGTGGTAAGTGAATGTGAAGGCCTAGGTTGTTACTGTGCTGTAGACTTTATAGACATAGAGTACTTAGACGACAATACATTTTTATTTTTATTATTATTTTTGAGACAGAATCTTGCTCTGTTGCCCAGACTAGAGTGCAGTGGTGCAATCTTGGCT: -0.00526 ratio
TAAGACACCTTAGATAGGTTTTTTAGAGTTTAGTTTTGAAATATTTTGATAGCTAAACTTTCTTTTTCCAAATGAAATCATAGATGGGCACAATGTAATCTAAAATAATACAGCTCAGTATTAAGCAGAAAGTCCTTCATTGCTTGTGAAACCTGGAAATCAATTATTTCACACCCTTATGATTCTTAGAGAC: -0.0523 ratio
AAACCAAGCTGACATCACAGTTCAGTACTTTCAAAACTTAAGTATTTGATGTCTGAGGTCAAGTACACAAGTACACACTCTGCCACCTCCTGTGCAAACAAATTATGGCTGCACTGATCTAATGAGTGCAGGCTGGCCTGGGACATAGGTAAACAGATGTGGGCCAAGTAGCCTGGCCCCTGCTGATAATGCT: 0.47 ratio
GTAGCCTTTTTCAGATTTCATCAAATATGGTGTTAGGGGGCCCTCATTTGTCCACAAAAAATATGGTGACAAGGGATGATGAGCTGAGTCAGAGTAAACACCATTTACTCACTTTGCGTCACTGTTTATTAGAAGGGCTGTTCGGACTTTCTAGTTGCCAAACTGGACCGTGTATGCTCTCTGAAGAGCGGGC: 0.164 ratio

Single results of other studies
Starting sequence: viral docking peptide; KKVKRRLFETREL; partner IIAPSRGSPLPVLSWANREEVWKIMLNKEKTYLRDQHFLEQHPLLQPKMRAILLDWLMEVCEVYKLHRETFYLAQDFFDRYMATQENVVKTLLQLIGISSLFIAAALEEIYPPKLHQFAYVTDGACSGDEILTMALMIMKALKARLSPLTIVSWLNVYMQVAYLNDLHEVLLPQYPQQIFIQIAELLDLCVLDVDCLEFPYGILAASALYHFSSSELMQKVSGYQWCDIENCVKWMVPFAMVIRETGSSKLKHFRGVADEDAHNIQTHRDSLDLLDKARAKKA
F8A — normalised enrichment score (CCNE1, cyclin fold, Cln2 fusion (human); yeast growth competition, sequencing; yeast; strong parent motif; reference: not given, higher = stronger binding): 0.196

For quick reference, copied from above (series 3):
TAAGACACCTTAGATAGGTTTTTTAGAGTTTAGTTTTGAAATATTTTGATAGCTAAACTTTCTTTTTCCAAATGAAATCATAGATGGGCACAATGTAATCTAAAATAATACAGCTCAGTATTAAGCAGAAAGTCCTTCATTGCTTGTGAAACCTGGAAATCAATTATTTCACACCCTTATGATTCTTAGAGAC: -0.0523 ratio
AGAACATATAAATCAGCACAAACAATGTAATATCAGATGGCTTTCAAATAAGAGATTAGAAAATGTTGTCCAAAGATATAAATAATGTGAAAAGTAAATAAAAATGCATTTATTTCATTAAGATAGATGACATAACTTTTTTAATGTCAAGGAATTTAATAATCACCTCCCTAAAACTTAATGGGTCCTCCCC: 0.461 ratio
GTAGCCTTTTTCAGATTTCATCAAATATGGTGTTAGGGGGCCCTCATTTGTCCACAAAAAATATGGTGACAAGGGATGATGAGCTGAGTCAGAGTAAACACCATTTACTCACTTTGCGTCACTGTTTATTAGAAGGGCTGTTCGGACTTTCTAGTTGCCAAACTGGACCGTGTATGCTCTCTGAAGAGCGGGC: 0.164 ratio
AAACCAAGCTGACATCACAGTTCAGTACTTTCAAAACTTAAGTATTTGATGTCTGAGGTCAAGTACACAAGTACACACTCTGCCACCTCCTGTGCAAACAAATTATGGCTGCACTGATCTAATGAGTGCAGGCTGGCCTGGGACATAGGTAAACAGATGTGGGCCAAGTAGCCTGGCCCCTGCTGATAATGCT: 0.47 ratio
